Published values collected from several papers.
Each numbered part is a random draw from the data of one study; scales do not carry over between parts.
UniProt Q9C7I9, sequence (whole entry, looked up): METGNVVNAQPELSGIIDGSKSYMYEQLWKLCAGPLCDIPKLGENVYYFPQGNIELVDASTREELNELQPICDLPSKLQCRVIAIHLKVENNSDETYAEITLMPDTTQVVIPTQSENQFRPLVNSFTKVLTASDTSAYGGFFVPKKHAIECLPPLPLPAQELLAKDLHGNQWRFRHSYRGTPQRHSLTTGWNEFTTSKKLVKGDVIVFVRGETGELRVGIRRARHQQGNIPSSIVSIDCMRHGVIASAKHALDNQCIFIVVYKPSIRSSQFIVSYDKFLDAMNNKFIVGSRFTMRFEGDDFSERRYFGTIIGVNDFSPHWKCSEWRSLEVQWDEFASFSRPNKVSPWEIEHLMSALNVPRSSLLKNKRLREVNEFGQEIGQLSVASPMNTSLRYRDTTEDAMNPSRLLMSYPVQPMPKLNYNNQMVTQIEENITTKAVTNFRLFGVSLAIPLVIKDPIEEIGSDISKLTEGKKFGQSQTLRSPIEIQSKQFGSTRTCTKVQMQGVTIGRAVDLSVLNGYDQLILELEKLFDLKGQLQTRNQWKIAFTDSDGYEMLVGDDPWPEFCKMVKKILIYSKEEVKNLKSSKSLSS
UniProt Q13177, sequence (whole entry, looked up): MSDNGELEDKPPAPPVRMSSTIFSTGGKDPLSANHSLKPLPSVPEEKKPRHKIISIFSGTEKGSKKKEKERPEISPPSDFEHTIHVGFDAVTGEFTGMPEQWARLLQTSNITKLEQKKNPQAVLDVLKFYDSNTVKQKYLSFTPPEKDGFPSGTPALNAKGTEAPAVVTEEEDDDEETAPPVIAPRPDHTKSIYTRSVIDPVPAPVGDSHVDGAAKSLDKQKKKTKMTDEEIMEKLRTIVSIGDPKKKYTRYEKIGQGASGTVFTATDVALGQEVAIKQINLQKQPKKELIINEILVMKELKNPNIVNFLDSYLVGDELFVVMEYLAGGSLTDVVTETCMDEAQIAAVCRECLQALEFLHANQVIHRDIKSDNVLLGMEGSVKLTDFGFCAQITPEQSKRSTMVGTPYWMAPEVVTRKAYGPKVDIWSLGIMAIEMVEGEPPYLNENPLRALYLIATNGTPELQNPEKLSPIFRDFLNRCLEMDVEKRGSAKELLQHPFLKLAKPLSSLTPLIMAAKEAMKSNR
UniProt O23661, sequence (whole entry, looked up): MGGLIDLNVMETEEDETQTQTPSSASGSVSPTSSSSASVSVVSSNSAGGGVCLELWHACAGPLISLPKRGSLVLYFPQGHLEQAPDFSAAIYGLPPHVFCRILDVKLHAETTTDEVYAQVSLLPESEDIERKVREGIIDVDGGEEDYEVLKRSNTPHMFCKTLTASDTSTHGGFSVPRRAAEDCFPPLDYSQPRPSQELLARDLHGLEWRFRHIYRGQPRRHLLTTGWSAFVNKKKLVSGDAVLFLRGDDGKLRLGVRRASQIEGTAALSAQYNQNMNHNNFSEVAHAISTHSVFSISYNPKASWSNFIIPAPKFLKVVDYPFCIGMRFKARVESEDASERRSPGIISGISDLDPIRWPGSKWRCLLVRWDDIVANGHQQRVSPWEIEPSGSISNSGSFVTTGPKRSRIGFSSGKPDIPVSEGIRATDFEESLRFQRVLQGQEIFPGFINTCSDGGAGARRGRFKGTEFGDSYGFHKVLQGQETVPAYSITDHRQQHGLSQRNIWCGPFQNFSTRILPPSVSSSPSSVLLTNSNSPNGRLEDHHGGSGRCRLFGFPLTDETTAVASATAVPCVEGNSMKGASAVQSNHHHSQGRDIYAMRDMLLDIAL
UniProt Q8N4C8, sequence (whole entry, looked up): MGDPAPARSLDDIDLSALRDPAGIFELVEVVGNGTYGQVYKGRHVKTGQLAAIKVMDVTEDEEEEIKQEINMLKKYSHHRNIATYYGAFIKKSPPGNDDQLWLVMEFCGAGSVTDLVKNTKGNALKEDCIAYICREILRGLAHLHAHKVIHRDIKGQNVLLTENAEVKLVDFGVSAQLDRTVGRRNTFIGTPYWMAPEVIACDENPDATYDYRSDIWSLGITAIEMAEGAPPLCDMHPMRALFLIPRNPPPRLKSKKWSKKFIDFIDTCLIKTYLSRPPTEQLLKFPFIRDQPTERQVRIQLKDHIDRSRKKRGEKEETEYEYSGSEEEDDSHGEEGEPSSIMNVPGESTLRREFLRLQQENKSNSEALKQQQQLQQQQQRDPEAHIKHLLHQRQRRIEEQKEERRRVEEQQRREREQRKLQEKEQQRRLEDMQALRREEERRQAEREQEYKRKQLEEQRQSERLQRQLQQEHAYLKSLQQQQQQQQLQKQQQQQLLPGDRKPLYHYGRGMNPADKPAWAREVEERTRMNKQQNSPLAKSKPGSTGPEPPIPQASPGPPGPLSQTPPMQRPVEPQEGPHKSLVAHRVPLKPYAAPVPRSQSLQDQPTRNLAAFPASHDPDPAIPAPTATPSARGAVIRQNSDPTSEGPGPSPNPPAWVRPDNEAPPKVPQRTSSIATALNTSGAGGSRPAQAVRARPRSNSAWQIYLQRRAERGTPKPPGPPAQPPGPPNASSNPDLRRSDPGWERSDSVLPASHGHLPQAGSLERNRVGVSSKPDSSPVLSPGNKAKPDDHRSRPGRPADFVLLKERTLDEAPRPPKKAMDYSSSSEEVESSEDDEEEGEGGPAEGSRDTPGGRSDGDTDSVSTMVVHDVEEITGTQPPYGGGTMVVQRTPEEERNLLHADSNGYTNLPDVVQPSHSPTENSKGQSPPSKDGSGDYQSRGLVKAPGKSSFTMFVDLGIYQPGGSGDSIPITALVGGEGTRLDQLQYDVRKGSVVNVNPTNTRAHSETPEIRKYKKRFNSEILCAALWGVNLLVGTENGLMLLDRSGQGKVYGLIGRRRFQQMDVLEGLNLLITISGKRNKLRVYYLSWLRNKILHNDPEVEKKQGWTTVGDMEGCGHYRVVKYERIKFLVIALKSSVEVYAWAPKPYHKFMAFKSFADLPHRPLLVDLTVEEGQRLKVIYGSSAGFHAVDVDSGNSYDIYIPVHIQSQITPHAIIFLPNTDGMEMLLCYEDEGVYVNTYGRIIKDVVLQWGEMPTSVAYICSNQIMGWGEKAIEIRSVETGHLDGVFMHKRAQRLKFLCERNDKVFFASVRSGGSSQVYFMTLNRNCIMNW
UniProt Q84WU6, sequence (whole entry, looked up): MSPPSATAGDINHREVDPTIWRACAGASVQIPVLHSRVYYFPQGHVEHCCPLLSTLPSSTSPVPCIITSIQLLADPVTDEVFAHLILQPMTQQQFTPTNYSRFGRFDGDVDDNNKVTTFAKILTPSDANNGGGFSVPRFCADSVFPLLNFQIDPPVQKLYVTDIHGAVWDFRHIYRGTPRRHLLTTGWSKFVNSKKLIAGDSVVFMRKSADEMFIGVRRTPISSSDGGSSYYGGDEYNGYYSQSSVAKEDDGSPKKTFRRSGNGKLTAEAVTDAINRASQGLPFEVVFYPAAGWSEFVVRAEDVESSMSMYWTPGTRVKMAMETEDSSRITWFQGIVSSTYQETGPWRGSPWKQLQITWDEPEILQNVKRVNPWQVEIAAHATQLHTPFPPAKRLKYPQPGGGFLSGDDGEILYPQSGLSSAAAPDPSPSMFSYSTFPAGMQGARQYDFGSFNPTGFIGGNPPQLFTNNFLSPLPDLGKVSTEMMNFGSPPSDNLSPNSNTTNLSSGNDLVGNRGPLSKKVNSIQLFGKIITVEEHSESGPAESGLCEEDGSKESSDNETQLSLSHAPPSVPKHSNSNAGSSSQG
UniProt Q38824, sequence (whole entry, looked up): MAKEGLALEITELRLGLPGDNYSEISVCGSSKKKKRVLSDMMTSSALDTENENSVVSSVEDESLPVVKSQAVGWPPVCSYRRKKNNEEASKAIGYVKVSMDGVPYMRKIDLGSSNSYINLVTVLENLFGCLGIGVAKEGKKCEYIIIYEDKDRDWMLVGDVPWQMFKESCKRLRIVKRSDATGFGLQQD

Sample 1
Target: PABPC1L2, full length, GST fusion (mouse, UniProt A0ABA7IW68)
Method: RNAcompete
Form: RNA
Medium: in vitro
Concentration: 20 nM
Setting: 7-mer, probes averaged, single round
Baseline: mean of 7-mers
Direction: higher = stronger binding
Construct (chain): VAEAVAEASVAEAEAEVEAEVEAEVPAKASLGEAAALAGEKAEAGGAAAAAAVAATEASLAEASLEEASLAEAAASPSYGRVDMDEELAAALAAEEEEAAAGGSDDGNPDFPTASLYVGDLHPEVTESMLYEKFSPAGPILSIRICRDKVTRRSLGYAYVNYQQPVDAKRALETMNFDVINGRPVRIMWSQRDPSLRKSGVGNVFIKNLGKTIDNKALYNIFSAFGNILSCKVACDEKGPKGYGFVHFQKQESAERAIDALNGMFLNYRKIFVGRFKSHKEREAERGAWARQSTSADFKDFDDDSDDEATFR
For `AACUUAU`, the 7-mer Z-score was -0.0645.
With `CAAAACU` the 7-mer Z-score was 0.948.
The 7-mer Z-score of `CUCUGCA` is reported as -0.184.
The 7-mer Z-score of `UGUGUCU` is reported as -0.362.
For `UUGGGUG`, the 7-mer Z-score was -0.142.
`CAGCGGU` has a 7-mer Z-score of -0.0881.
For `CCCGUGA`, the 7-mer Z-score was -0.266.
`AUUGGAA` gave a 7-mer Z-score of 0.215.

Sample 2
Sequence: B1 (IAA2)
Method: two-hybrid
Baseline: out of 4 tests
Direction: higher = firmer interaction
B1: IAA2 (Arabidopsis thaliana, UniProt P49678); chain MAYEKVNELNLKDTELCLGLPGRTEKIKEEQEVSCVKSNNKRLFEETRDEEESTPPTKTQIVGWPPVRSSRKNNNSVSYVKVSMDGAPYLRKIDLKTYKNYPELLKALENMFKVMIGEYCEREGYKGSGFVPTYEDKDGDWMLVGDVPWDMFSSSCKRLRIMKGSDAPALDSSL
ETT (Arabidopsis thaliana, UniProt O23661) — positive tests: 0.
The positive tests was 4 (IAA17 (Arabidopsis thaliana, UniProt P93830)).
It gave 0 for positive tests (ARF20 484-590 (Arabidopsis thaliana, UniProt Q9C7I9)).
ARF17 (Arabidopsis thaliana, UniProt Q84WU6); weak activation fusion — positive tests: 0.
For IAA7 (Arabidopsis thaliana, UniProt Q38825): positive tests read 1.
For IAA6 (Arabidopsis thaliana, UniProt Q38824): positive tests read 1.

Sample 3
Target: Calcium/calmodulin-dependent protein kinase type 1B (PNCK, Homo sapiens, UniProt Q6P2M8)
UniProt Q6P2M8, sequence (whole entry, looked up): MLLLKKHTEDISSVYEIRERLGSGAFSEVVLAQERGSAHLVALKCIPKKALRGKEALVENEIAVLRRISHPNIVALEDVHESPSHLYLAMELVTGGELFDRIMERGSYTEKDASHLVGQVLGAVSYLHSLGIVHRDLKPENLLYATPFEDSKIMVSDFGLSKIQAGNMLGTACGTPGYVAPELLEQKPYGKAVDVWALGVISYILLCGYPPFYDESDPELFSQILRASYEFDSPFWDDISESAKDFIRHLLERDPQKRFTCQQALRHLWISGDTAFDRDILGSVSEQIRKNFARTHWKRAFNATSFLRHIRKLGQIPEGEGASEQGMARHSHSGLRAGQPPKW
Observed: enzyme activity
Action: inhibitor
Concentration: 0.5 µM
Baseline: control
For `O=S(=O)(c1cccc2cnccc12)N1CCCNCC1`, the remaining activity was 91.6%.
`C#Cc1cccc(Nc2ncnc3cc(OCCOC)c(OCCOC)cc23)c1` gave a remaining activity of 103%.
`COc1ccc(OC)c2c(=S)c3ccccc3[nH]c12` has a remaining activity of 97.3%.
`Cc1nc(-c2ccccc2)c(-c2ccncc2)o1` gave a remaining activity of 96.6%.
For `COc1cc2nccc(Oc3ccc(NC(=S)NC(=O)c4ccccc4C)cc3)c2cc1OC`, the remaining activity was 93.2%.
`COc1ccc(C(=O)Nc2sc3c(c2C(N)=O)CCCC3)cc1OC` gave a remaining activity of 103%.
`CN(C)c1ccc(C=C2C(=O)Nc3ccccc32)cc1` gave a remaining activity of 102%.
The remaining activity of `O=C1NC(=O)C(c2cn(CCCn3ccnc3)c3ccccc23)=C1Nc1ccccc1` is reported as 90.6%.
With `O=C(CCCc1ccc(-c2ccccc2F)cc1)Nc1ccc(O)cc1` the remaining activity was 102%.
With `COc1cc2ncnc(Nc3ccc(F)c(Cl)c3)c2cc1OCCCN1CCOCC1` the remaining activity was 108%.
For `COc1cc2ncnc(Nc3ccc(Oc4ccccc4)cc3)c2cc1OC`, the remaining activity was 97.7%.
The remaining activity of `Cc1cccc(-c2[nH]c(C(C)(C)C)nc2-c2ccc3c(c2)OCO3)n1` is reported as 101%.
With `Cn1sc(=O)n(Cc2ccccc2)c1=O` the remaining activity was 98.7%.
For `OCC(O)CCON=C1C(c2c(O)[nH]c3ccccc23)=Nc2ccccc21` (stereo not drawn), the remaining activity was 101%.
`Cn1c2ccccc2c2c3c(c4c5ccccc5n(CCC#N)c4c21)CNC3=O` gave a remaining activity of 103%.

Sample 4
SMILES: CS(=O)(=O)N1CCCC(NC(=O)[C@H](CCC2CCCCC2)NC(=O)c2ccc(CNc3ncnc4c3nnn4-c3ccccc3)cc2)C1 (stereo partly drawn)
Observed: cell-free assay
Method: competition with immobilised ligand
Concentration: 0.1 µM
The remaining binding was 100% (Serine/threonine-protein kinase LATS1 (LATS1, Homo sapiens, UniProt O95835)).
Epidermal growth factor receptor (EGFR, Homo sapiens, UniProt P00533, del747-750/T751S) — remaining binding: 94%.
It gave 100% for remaining binding (Serine/threonine-protein kinase PAK 2 (PAK2, Homo sapiens, UniProt Q13177)).
It gave 85% for remaining binding (Misshapen-like kinase 1 (MINK1, Homo sapiens, UniProt Q8N4C8)).

For quick reference, copied from above (sample 3):
For `OCC(O)CCON=C1C(c2c(O)[nH]c3ccccc23)=Nc2ccccc21` (stereo not drawn), the remaining activity was 101%.
`COc1ccc(OC)c2c(=S)c3ccccc3[nH]c12` has a remaining activity of 97.3%.
`C#Cc1cccc(Nc2ncnc3cc(OCCOC)c(OCCOC)cc23)c1` gave a remaining activity of 103%.
The remaining activity of `Cc1cccc(-c2[nH]c(C(C)(C)C)nc2-c2ccc3c(c2)OCO3)n1` is reported as 101%.
`Cn1c2ccccc2c2c3c(c4c5ccccc5n(CCC#N)c4c21)CNC3=O` gave a remaining activity of 103%.
